Experimental data pooled from the literature.
Numbered parts are unrelated; each lists some results of a single study.
Chain of UniProt P50750 (whole entry, looked up): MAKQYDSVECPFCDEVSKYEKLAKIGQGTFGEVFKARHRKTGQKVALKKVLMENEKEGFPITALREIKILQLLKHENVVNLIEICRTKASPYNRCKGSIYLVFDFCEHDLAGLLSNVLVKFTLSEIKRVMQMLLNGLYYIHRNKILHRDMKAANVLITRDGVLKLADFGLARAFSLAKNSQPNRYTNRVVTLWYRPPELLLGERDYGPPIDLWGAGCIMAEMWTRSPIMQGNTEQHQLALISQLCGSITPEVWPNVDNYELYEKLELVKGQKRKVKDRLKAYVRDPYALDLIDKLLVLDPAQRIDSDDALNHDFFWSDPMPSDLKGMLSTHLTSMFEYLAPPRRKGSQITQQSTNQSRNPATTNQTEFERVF
Chain of UniProt P51956 (whole entry, looked up): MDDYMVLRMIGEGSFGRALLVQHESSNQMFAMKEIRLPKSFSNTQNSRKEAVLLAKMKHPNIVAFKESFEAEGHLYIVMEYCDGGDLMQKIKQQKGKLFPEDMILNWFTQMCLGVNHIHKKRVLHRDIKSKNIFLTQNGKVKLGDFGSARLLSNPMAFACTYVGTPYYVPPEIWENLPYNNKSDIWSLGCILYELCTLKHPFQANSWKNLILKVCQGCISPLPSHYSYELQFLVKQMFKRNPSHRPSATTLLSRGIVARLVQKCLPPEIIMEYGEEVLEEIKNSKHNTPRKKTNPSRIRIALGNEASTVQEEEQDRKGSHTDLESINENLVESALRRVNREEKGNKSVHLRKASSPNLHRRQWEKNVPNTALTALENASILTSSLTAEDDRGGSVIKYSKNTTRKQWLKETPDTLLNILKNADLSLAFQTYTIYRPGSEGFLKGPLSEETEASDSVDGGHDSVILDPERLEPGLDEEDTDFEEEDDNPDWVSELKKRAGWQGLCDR
Chain of UniProt Q96L34 (whole entry, looked up): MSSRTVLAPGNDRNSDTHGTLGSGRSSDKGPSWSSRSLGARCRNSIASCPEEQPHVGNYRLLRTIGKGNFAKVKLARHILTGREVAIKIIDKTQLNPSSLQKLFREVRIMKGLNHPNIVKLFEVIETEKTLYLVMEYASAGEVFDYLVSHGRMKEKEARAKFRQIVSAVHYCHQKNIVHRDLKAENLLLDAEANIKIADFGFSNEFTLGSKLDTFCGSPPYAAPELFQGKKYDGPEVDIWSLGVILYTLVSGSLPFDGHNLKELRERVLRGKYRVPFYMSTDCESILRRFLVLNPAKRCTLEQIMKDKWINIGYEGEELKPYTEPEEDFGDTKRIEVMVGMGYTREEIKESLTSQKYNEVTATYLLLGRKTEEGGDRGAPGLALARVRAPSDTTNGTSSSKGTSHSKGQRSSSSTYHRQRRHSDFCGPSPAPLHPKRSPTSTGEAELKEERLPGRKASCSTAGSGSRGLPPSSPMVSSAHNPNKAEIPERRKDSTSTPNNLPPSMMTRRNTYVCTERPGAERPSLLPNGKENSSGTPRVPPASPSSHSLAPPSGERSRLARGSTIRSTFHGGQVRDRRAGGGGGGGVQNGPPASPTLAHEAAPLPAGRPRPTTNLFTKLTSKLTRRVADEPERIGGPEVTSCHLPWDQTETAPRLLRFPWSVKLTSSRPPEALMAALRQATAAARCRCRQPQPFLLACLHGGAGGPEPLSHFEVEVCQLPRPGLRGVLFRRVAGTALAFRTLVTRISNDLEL
Chain of UniProt Q07002 (whole entry, looked up): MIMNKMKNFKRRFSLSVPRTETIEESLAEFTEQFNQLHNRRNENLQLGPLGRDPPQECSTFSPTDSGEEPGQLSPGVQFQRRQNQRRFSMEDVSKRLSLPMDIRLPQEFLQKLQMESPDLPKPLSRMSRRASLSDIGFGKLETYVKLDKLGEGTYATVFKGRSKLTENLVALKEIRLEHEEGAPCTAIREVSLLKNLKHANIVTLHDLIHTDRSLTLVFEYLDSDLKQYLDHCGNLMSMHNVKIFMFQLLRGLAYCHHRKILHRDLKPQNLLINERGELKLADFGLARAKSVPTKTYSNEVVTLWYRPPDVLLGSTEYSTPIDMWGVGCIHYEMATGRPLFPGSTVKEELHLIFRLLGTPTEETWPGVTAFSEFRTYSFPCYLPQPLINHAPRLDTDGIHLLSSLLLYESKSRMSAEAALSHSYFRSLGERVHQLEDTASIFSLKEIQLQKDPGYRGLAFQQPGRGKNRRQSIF
Chain of UniProt Q6P2M8 (whole entry, looked up): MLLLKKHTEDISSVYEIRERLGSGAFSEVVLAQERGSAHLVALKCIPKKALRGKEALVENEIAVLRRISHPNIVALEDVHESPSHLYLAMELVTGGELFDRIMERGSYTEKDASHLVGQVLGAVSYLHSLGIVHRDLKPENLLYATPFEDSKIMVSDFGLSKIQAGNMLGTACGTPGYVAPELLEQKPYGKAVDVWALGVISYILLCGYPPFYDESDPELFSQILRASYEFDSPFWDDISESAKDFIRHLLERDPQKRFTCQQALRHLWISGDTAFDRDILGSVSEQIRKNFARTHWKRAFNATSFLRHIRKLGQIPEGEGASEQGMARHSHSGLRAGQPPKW
Chain of UniProt P31751 (whole entry, looked up): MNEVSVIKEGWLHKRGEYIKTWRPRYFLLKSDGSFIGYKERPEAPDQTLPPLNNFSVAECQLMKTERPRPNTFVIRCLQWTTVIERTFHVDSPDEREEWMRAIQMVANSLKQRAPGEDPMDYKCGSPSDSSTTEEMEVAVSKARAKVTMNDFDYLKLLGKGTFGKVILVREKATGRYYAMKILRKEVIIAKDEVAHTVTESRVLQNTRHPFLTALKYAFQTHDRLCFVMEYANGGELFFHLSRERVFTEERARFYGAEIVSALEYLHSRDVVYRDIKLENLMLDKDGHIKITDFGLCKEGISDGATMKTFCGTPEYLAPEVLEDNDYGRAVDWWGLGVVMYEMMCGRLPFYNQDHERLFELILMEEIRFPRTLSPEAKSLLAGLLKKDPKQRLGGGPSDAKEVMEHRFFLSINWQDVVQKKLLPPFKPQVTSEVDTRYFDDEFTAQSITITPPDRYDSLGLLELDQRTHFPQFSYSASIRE
Chain of UniProt Q9HAZ1 (whole entry, looked up): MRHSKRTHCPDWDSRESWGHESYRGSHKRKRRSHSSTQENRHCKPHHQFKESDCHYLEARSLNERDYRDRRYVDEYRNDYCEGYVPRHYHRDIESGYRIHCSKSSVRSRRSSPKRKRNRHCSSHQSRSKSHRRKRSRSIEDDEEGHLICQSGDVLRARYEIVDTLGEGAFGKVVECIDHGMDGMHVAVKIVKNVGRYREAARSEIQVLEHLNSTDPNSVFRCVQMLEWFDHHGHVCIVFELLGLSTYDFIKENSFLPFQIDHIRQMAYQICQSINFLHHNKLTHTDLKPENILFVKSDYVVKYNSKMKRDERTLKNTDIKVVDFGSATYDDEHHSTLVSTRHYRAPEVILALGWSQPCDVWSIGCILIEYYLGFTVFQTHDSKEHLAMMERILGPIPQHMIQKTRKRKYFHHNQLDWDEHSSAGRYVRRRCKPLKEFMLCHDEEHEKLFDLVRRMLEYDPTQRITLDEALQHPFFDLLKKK

Study 1
Target: Interferon regulatory factor 3, full length, phosphomimetic (IRF3, Homo sapiens, UniProt Q14653, residues 1-427, S386D/S396D/S398D/S402D/T404D/S405D)
Chain of UniProt Q14653 (whole entry, unmodified, looked up): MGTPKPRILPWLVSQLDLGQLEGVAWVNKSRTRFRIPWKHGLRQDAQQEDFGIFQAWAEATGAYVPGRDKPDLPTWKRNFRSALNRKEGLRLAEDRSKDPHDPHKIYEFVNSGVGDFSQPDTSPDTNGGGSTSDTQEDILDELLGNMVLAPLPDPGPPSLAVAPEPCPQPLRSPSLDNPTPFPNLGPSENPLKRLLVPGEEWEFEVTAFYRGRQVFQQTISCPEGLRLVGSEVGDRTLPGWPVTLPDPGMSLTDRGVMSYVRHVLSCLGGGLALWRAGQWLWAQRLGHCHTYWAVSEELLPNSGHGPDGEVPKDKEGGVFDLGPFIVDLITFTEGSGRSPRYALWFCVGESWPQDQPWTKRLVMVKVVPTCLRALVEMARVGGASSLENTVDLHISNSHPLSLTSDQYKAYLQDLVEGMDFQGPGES
Method: protein-binding microarray
Form: double-stranded DNA, one strand shown
Medium: in vitro
Tested at: 2540 nM top
Notes: 60-bp whole probe
With: salmon DNA 0.4 mg/ml
Baseline: random background probes
Direction: higher = stronger binding
Endpoint: fitted relative affinity
All sequences stand within: GCCTAGCAC … GTCTTGATTCGCTTGACGCTGCTG
TTAGGTCTCGTTTTCCTTTAGTGCTAG: 3.5 z-score
GACTATTTCAGTTCCGAGACGTGCTAG: 2.31 z-score
TCAGATTTCCTTCACCCACTGTGCTAG: 1.86 z-score
GACGGACTGAACACTGGGGACGTGCTA: -0.269 z-score
TTAGGTTTTGGGTTTCGGTTAGTGCTA: 3.36 z-score
TTAGATATCAGGCTGGATTAGTGCTAG: -0.185 z-score
TTAGATATCAGCATCGATTAGTGCTAG: -0.0105 z-score
TTTGGTATCGACTTTCGGTTAGTGCTA: 2.16 z-score

Study 2
Compound: CCCCN(CCCC)C(=O)CN1C[C@H](c2cc(OC)c3c(c2)OCO3)[C@@H](C(=O)O)[C@@H]1CC(C)(C)CCC
Read-out: cell-free assay
Method: competition with immobilised ligand
Tested at: 1 µM
Endpoint: remaining binding
Inhibitor of nuclear factor kappa-B kinase subunit alpha (CHUK, Homo sapiens, UniProt O15111): 56.2%
Fibroblast growth factor receptor 1 (FGFR1, Homo sapiens, UniProt P11362): 89.4%
Epidermal growth factor receptor (EGFR, Homo sapiens, UniProt P00533, A750P/del747-749): 94.3%
Cyclin-dependent kinase 18 (CDK18, Homo sapiens, UniProt Q07002): 100%

Study 3
Compound: O=C1C(Cl)=C(N2C(=O)CCC2=O)C(=O)c2ccccc21
Read-out: enzyme activity
Mode: inhibitor
Tested at: 0.5 µM
Baseline: control
Endpoint: remaining activity
Mitogen-activated protein kinase 1 (MAPK1, Homo sapiens, UniProt P28482): 73.6%
Hepatocyte growth factor receptor (MET, Homo sapiens, UniProt P08581): 109%
RAC-beta serine/threonine-protein kinase (AKT2, Homo sapiens, UniProt P31751): 96.3%
Serine/threonine-protein kinase Nek3 (NEK3, Homo sapiens, UniProt P51956): 102%
Mitogen-activated protein kinase 14 (MAPK14, Homo sapiens, UniProt Q16539): 88.1%
MAP/microtubule affinity-regulating kinase 4 (MARK4, Homo sapiens, UniProt Q96L34): 99.6%
Calcium/calmodulin-dependent protein kinase type 1B (PNCK, Homo sapiens, UniProt Q6P2M8): 100%
Serine/threonine-protein kinase tousled-like 2 (TLK2, Homo sapiens, UniProt Q86UE8): 117%
Dual specificity protein kinase CLK3 (CLK3, Homo sapiens, UniProt P49761): 114%
Cyclin-dependent kinase 9, with cyclin K (CDK9, Homo sapiens, UniProt P50750): 97.2%
Dual specificity protein kinase CLK4 (CLK4, Homo sapiens, UniProt Q9HAZ1): 94.1%
Dual specificity mitogen-activated protein kinase kinase 1 (MAP2K1, Homo sapiens, UniProt Q02750): 76.5%

Study 4
Target: Sal-like protein 4, full length isoform A (SALL4, Homo sapiens, UniProt Q9UJQ4, residues 1-1053)
Chain of UniProt Q9UJQ4 (whole entry, looked up): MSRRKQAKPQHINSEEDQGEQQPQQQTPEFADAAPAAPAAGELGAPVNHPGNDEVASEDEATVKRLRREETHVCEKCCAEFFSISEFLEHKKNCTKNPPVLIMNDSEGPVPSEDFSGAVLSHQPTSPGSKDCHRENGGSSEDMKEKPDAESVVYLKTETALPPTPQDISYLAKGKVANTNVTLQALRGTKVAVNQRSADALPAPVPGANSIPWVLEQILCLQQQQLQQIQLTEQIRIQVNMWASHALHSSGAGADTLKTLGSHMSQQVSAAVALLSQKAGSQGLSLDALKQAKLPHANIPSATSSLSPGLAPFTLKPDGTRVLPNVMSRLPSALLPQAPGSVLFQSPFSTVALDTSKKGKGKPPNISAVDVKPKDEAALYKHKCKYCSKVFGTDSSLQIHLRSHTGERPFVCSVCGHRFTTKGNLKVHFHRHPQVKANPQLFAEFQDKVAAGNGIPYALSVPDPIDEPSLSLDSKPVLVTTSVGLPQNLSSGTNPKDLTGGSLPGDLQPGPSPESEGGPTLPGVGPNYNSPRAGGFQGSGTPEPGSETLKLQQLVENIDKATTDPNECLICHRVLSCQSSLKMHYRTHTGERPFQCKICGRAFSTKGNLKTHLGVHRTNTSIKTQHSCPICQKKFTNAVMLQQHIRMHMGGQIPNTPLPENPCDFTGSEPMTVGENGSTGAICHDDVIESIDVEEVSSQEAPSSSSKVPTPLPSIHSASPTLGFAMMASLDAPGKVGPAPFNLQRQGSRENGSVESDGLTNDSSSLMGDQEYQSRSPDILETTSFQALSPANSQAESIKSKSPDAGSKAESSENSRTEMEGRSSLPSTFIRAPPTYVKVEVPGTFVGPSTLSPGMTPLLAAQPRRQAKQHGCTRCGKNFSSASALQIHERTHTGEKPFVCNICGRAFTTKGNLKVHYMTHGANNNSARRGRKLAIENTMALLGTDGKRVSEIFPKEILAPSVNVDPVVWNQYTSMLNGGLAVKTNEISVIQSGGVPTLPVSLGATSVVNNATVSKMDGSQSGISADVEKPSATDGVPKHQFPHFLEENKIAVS
Method: universal PBM
Form: double-stranded DNA, one strand shown
Medium: in vitro
Tested at: 600 nM
Notes: 8-mer, flanks averaged, mean of replicates
Direction: higher = stronger binding
Endpoint: E-score
ACCGCGGG: -0.38
GTTTAGAA: 0.207
CCGTGCAA: -0.153
TAGGTGAA: 0.0661
CCTTTCAC: 0.00111
ACAAACGC: -0.0201
AATAAACT: 0.384
TTCCAGAA: 0.139
